Results of several laboratories.
pIC50: −log10 of the molar value.
RET: Proto-oncogene tyrosine-protein kinase receptor Ret (RET, Homo sapiens, UniProt P07949)
Chain of UniProt P07949 (whole entry, unmodified, looked up): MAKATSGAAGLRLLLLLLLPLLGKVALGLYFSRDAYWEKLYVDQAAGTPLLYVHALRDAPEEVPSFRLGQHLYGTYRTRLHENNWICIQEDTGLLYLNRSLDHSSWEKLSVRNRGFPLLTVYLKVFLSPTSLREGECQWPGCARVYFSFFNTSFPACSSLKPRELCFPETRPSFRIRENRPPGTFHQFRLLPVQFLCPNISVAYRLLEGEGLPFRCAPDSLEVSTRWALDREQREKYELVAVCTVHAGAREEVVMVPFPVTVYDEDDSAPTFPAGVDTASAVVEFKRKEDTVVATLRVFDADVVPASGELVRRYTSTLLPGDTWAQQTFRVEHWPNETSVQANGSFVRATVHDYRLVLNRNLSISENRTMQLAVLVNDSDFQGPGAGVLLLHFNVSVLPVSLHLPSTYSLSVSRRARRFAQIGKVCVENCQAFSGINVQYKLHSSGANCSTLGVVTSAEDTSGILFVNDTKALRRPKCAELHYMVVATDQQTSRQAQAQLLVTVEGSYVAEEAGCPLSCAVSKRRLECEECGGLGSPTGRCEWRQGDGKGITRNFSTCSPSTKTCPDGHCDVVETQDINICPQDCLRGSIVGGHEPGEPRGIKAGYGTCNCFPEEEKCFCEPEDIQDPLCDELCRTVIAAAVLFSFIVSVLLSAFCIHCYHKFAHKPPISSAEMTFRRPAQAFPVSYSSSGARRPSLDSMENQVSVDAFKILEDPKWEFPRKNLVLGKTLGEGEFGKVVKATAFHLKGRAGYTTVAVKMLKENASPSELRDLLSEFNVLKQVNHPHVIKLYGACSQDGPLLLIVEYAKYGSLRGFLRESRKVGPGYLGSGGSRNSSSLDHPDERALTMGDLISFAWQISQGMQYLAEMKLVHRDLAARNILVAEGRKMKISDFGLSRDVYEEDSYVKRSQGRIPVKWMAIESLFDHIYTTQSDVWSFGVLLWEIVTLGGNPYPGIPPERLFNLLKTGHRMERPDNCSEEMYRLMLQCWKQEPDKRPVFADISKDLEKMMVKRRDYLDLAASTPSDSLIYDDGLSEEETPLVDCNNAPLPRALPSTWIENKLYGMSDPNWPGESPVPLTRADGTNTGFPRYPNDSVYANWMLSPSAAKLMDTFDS
RET M918T: Proto-oncogene tyrosine-protein kinase receptor Ret (RET, Homo sapiens, UniProt P07949, M918T)

Compound	target or system	test	system	setting	quantity	result
Cc1ccc(-c2nn3c(=O)cc(CNC(=O)Nc4ccc(C)c(Cl)c4)nc3s2)cc1	RET	enzyme activity, inhibitor, radiometric		10 µM	remaining activity	105%
Cc1ccc(N(O)N=Nc2ccc(S(=O)(=O)Nc3cc(C)on3)cc2)cc1		DPPH scavenging, absorbance		300 µg/mL	inhibition	32.4%
Cc1cc([C@@H](C)Nc2ccccc2C(=O)O)c2nc(N3CCC(F)(F)CC3)c(C#N)c(=O)n2c1	RET	binding, competition with immobilised ligand		1 µM	remaining binding	94%
C=CC(=O)N1CCC(COCC(=O)N2CCN(c3nc(-c4cnc(N)nc4C(F)F)nc(N4CCOC[C@@H]4C)n3)CC2)CC1	RET M918T	binding, competition with immobilised ligand		1 µM	remaining binding	79%
CCc1cccc(NC(=O)c2cc(-c3ccc(OC)c(S(N)(=O)=O)c3)[nH]n2)c1	RET	enzyme activity, inhibitor, radiometric		0.1 µM	remaining activity	120%
C1=C/COCc2cc(ccc2OCCN2CCCC2)Nc2nccc(n2)-c2cccc(c2)COC/1	RET (Homo sapiens, UniProt P07949, V804L)	binding		0.1 µM	remaining binding	83%
Cc1n[nH]c(C)c1CCCOc1cc(OCCCCCCNCCOCCn2cc(C[C@H](NC(=O)CCCCC[N+]3=C(C=CC4=CC(=CC=C5N(C)c6ccc(S(=O)(=O)O)cc6C5(C)C)CCC4)C(C)(C)c4cc(S(=O)(=O)[O-])ccc43)C(=O)NCCCCCC(=O)NCCCC[C@H](NC(=O)N[C@@H](CCC(=O)O)C(=O)O)C(=O)O)nn2)cc(C(=O)O)c1			PBS	pH 7.4	solubility	≥ 200 µM
CNc1ncc2c(/C=C/C(=O)N3CCC(OC)CC3)nn(Cc3cccc(C(F)(F)F)c3)c2n1	RET	enzyme activity, inhibitor, radiometric		1 µM	remaining activity	87%
CCCN(O)N=Nc1ccc(S(=O)(=O)Nc2onc(C)c2C)cc1		DPPH scavenging, absorbance		300 µg/mL	inhibition	33.4%
COc1cc(-c2cncc3c2CN(C)Cc2cc(N4CCNCC4)ccc2-3)cc(OC)c1OC	RET (Homo sapiens, UniProt P07949, V804M)	enzyme activity, inhibitor		1 µM	remaining activity	102%
COc1cc(NC(=O)Nc2ccccc2Br)cc2sc(NC(=O)c3ccccc3)nc12	RET	enzyme activity, inhibitor, radiometric		10 µM	remaining activity	93.4%
CCCCC(=O)Nc1ccc(-c2ccc3ncn(CCC)c(=O)c3c2)cn1	RET M918T	binding, competition with immobilised ligand		0.5 µM	remaining binding	100%
CC(OC(=O)c1cc(Cc2ccccc2)ccc1O)C(=O)Nc1ccc(S(N)(=O)=O)cc1 (stereo not shown)	CA9 (Homo sapiens, UniProt Q16790)	enzyme activity, inhibitor			pIC50	6.52

Repeated from above:
Compound	target or system	test	system	setting	quantity	result
CNc1ncc2c(/C=C/C(=O)N3CCC(OC)CC3)nn(Cc3cccc(C(F)(F)F)c3)c2n1	RET	enzyme activity, inhibitor, radiometric		1 µM	remaining activity	87%
